Assay results of several laboratories.
Compare with care: the assays were run in different laboratories. Values joined by “and” are separate records of one study, mostly repeats; a detail may differ. Numbers after ± are the reported error.

Structure (SMILES)	test	system	conditions	scale	endpoint	value
COc1cc(N2CCN(C(=O)C3CCCN3)CC2)ccc1Nc1ncc(Cl)c(Nc2ccccc2P(C)(C)=O)n1 (stereo not drawn)	–	nude mice, NCI-H3122 xenograft	oral, 25 mg/kg every two days, day 11	–	tumour volume	324 mm3 and 147 mm3 and 33.7 mm3 and 143 mm3 and 231 mm3
COC1CN([C@H]2CC[C@H]([C@@]3(C)Oc4c(Cl)cc(C(=O)NCc5c(SC)cc(C)[nH]c5=O)c(C)c4O3)CC2)C1	RNA-seq, measured: GLIS2 mouse homolog	mouse, HT-1376 xenograft, whole blood	dose not given	reference: vehicle	log2 fold change	3
COC1OC(C)C(O)C(OC2OC(C)C(O)C(OC3OC(C)C(O)C(OC4OC(C)C(O)C(OC5OC(C)C(O)C(OC6OC(C)C(O)C(OC7OC(C)C(O)C(OC8OC(C)C(O)C(OC9OC(C)C(O)C(OC%10OC(C)C(O)C(OS(=O)(=O)O)C%10OS(=O)(=O)O)C9OS(=O)(=O)O)C8OS(=O)(=O)O)C7OS(=O)(=O)O)C6OS(=O)(=O)O)C5OS(=O)(=O)O)C4OS(=O)(=O)O)C3OS(=O)(=O)O)C2OS(=O)(=O)O)C1OS(=O)(=O)O (stereo not drawn)	–	human plasma	128 µg/mL	–	prothrombin time	14.8 ± 0.2 s
COc1cc(O)ccc1CCC(c1ccc(O)cc1)c1cc2c(c(C)c1O)OC(c1ccc(O)cc1)CC2 (mixture of isomers)	measured: 4-HDHA	human whole blood	30 µM, with: Escherichia coli	–	amount	64 ± 35 pg/mL blood
CC[C@H](C)NCC(SS(=O)(=O)O)c1ccccc1 (stereo partly drawn)	–	Swiss Webster mice, Schistosoma mansoni infected	100 mg/kg	reference: vehicle control	liver weight decrease	16%
CC(=O)N1c2ccc(-c3ccc(CNC(=O)c4cn5cc(-c6cnc(N)nc6)nc(N6CCOCC6)c5n4)cc3)cc2CC[C@@H]1C	–	mice transplanted Eµ-Myc lymphoma	35 mg/kg, 15 d dosing	–	sustained complete lymphoma clearance	10%
COC1OC(C)C(OC2OC(C)C(OS(=O)(=O)O)C(OS(=O)(=O)O)C2O)C(OS(=O)(=O)O)C1O (stereo not drawn)	–	human plasma	128 µg/mL	–	prothrombin time	15.2 ± 0.2 s
CN1C/C(=C\c2cc(Cl)c(O)c(Cl)c2)C(=O)/C(=C/c2cc(Cl)c(O)c(Cl)c2)C1	ABTS scavenging	–	20 min	–	IC50	224 µg/mL
COC1OC(C)C(OS(=O)(=O)O)C(OC2OC(C)C(OS(=O)(=O)O)C(OC3OC(C)C(OS(=O)(=O)O)C(OC4OC(C)C(OS(=O)(=O)O)C(OC5OC(C)C(OS(=O)(=O)O)C(OS(=O)(=O)O)C5O)C4O)C3O)C2O)C1O (stereo not drawn)	–	human plasma	128 µg/mL	–	prothrombin time	14.5 ± 0.3 s
NC[C@@H](C(=O)Nc1ccc(-c2cn[nH]c2)cc1)c1ccccc1	tonometry	NZW rabbit, magnetic bead-induced ocular hypertension	ocular, 0.1%, 32 h	–	IOP	29.1 mmHg
COc1ccccc1C1NCCc2cc(O)c(O)cc21 (stereo not drawn)	ABTS scavenging	–	10 min, dark	–	IC50	9.62 µM
CCC(=O)N[C@@H](C)C(=O)OCC(=O)N[C@@H](C)C(=O)O	–	water	pH 7, 65 °C	–	chain scission rate constant	0.15 h⁻¹
COC1OC(C)C(OS(=O)(=O)O)C(OC2OC(C)C(OS(=O)(=O)O)C(OC3OC(C)C(OS(=O)(=O)O)C(OC4OC(C)C(OS(=O)(=O)O)C(OC5OC(C)C(OS(=O)(=O)O)C(OC6OC(C)C(OS(=O)(=O)O)C(OC7OC(C)C(OS(=O)(=O)O)C(OS(=O)(=O)O)C7O)C6O)C5O)C4O)C3O)C2O)C1O (stereo not drawn)	–	human plasma	128 µg/mL	–	prothrombin time	15.1 ± 0.1 s
Oc1cccc(C2NCCc3cc(O)c(O)cc32)c1 (stereo not drawn)	ABTS scavenging	–	10 min, dark	–	IC50	6.9 µM
COC1OC(C)C(OS(=O)(=O)O)C(OC2OC(C)C(OS(=O)(=O)O)C(OC3OC(C)C(OS(=O)(=O)O)C(OC4OC(C)C(OS(=O)(=O)O)C(OC5OC(C)C(OS(=O)(=O)O)C(OC6OC(C)C(OS(=O)(=O)O)C(OS(=O)(=O)O)C6OS(=O)(=O)O)C5OS(=O)(=O)O)C4OS(=O)(=O)O)C3OS(=O)(=O)O)C2OS(=O)(=O)O)C1OS(=O)(=O)O (stereo not drawn)	–	human plasma	128 µg/mL	reference: control	prothrombin time prolongation	1.02 fold
CN1CCCNC(=O)c2cccc(c2)C(=O)NCCCN(C)CCCNc2cccc3c2C(=O)c2cccc(c2C3=O)NCCC1	–	SAS xenograft, KSN/Slc nude mice	dose not given, day 0	–	tumour volume	64.1 mm3 and 74.1 mm3 and 92.3 mm3 and 65.7 mm3 and 37.7 mm3
CC(C)C[C@H](NC(=O)[C@H](CC(=O)O)NC(=O)CNC(=O)[C@@H](N)CCCNC(=N)N)C(=O)N[C@@H](C)C(=O)N[C@H](C(=O)N[C@@H](CC(C)C)C(=O)N[C@@H](CCCNC(=N)N)C(=O)N[C@@H](CCC(N)=O)C(=O)N[C@@H](CC(C)C)C(=O)N[C@@H](C)C(=O)N[C@@H](CCC(N)=O)C(=O)N[C@@H](CCC(=O)O)C(=O)N[C@@H](CC(=O)O)C(=O)NCC(=O)N[C@H](C(=O)N[C@H](C(=O)NCC(=O)N[C@H](C(=O)N[C@@H](CCCNC(=N)N)C(=O)NCCOCCOCCOCCOCCOCCOCCOCCOCCOCCOCCOCCOCCC(=O)N[C@@H](CS)C(N)=O)C(C)C)C(C)C)C(C)C)[C@@H](C)O	ex vivo NIR imaging	NOD/SCID mice, xenograft, H2009 xenograft	intravenous, 30 µg, 24 h	reference: liver	fluorescence signal ratio	1.2 and 0.2
CC(C)(C)NCC(SS(=O)(=O)O)c1ccccc1 (stereo not drawn)	–	Schistosoma mansoni-infected mice	400 mg/kg single, day 42, perfusion day 56	reference: vehicle	liver weight decrease	23%
COc1c(Cl)cccc1Nc1c(-c2ccncc2C#C[C@@]2(C)CCCN2C(=O)/C=C/CN(C)C)[nH]c2c1C(=O)NCC2	–	CUTO14, EGFR ASV, female NSG mouse, CUTO14 xenograft	50 mg/kg once daily, 21 days	–	tumour growth inhibition	190%
COC1OC(C)C(OS(=O)(=O)O)C(OC2OC(C)C(OS(=O)(=O)O)C(OC3OC(C)C(OS(=O)(=O)O)C(OS(=O)(=O)O)C3OS(=O)(=O)O)C2OS(=O)(=O)O)C1OS(=O)(=O)O (stereo not drawn)	–	human plasma	128 µg/mL	–	prothrombin time	15.2 ± 0.5 s
CN(C)Cc1nc(Nc2ccc(-c3cnc4cc(F)ccn34)c3c2C(=O)NC3)ccc1C1CCOC1 (stereo not drawn)	–	mouse EMT6 syngeneic tumour	oral, 75 mg/kg once daily	reference: vehicle	circulating IFN-γ, IL-2, IgG	increased
CN1CCC[C@]1(C)/C=C/S(=O)(=O)NC(=O)Nc1c2c(cc3c1CCC3)CCC2	–	human, whole blood ex vivo	50 mg single dose, 24 h, single ascending dose, with: LPS and ATP	–	IL-1β inhibition	73%
O=C([O-])CN1Cc2cccc(n2)CN(CC(=O)[O-])Cc2cccc(n2)C1.[Mn+2]	9.4 T T1-weighted MRI	mouse	intravenous, 80 µmol/kg	reference: baseline	kidney signal enhancement	~1.75 fold
COC1OC(C)C(OC2OC(C)C(O)C(OC3OC(C)C(OC4OC(C)C(O)C(OC5OC(C)C(OC6OC(C)C(O)C(OS(=O)(=O)O)C6OS(=O)(=O)O)C(OS(=O)(=O)O)C5OS(=O)(=O)O)C4OS(=O)(=O)O)C(OS(=O)(=O)O)C3OS(=O)(=O)O)C2OS(=O)(=O)O)C(OS(=O)(=O)O)C1OS(=O)(=O)O (stereo not drawn)	–	human plasma	128 µg/mL	reference: control	prothrombin time prolongation	0.99 fold
Nc1nc2cc(CC[C@H]3C[C@@H](n4ccc5c(N)ncnc54)[C@H](O)[C@@H]3O)ccc2cc1Br	–	NCI-H1048 xenograft, mouse	1.0 mg/kg/day, day 28	–	tumour volume	2030 ± 376 mm3
COC1OC(C)C(OS(=O)(=O)O)C(OC2OC(C)C(OS(=O)(=O)O)C(OS(=O)(=O)O)C2OS(=O)(=O)O)C1OS(=O)(=O)O (stereo not drawn)	–	human plasma	128 µg/mL	–	prothrombin time	14.8 ± 0.2 s
COc1ccc2cc3[n+](cc2c1OCCCOC(=O)c1cscn1)CCc1cc2c(cc1-3)OCO2	ELISA	HFD-fed C57BL/6 mouse	dose not given	–	plasma PCSK9 level	decreased

Some of these lines once more:
Structure (SMILES)	test	system	conditions	scale	endpoint	value
COC1OC(C)C(OS(=O)(=O)O)C(OC2OC(C)C(OS(=O)(=O)O)C(OC3OC(C)C(OS(=O)(=O)O)C(OC4OC(C)C(OS(=O)(=O)O)C(OC5OC(C)C(OS(=O)(=O)O)C(OS(=O)(=O)O)C5O)C4O)C3O)C2O)C1O (stereo not drawn)	–	human plasma	128 µg/mL	–	prothrombin time	14.5 ± 0.3 s
NC[C@@H](C(=O)Nc1ccc(-c2cn[nH]c2)cc1)c1ccccc1	tonometry	NZW rabbit, magnetic bead-induced ocular hypertension	ocular, 0.1%, 32 h	–	IOP	29.1 mmHg
